Measured values of several laboratories.
Protocols differ between the studies behind these lines.
Method: steady-state kinetics
B1: Gcs (Leishmania donovani, UniProt Q67BG3); chain MGLLTTGGAPIQWGTDANRKAIPHVREHGIQQFLNVFKNKKDLHGMPFLWGEELEHQLIQIHDNTVTLSTESAMVMNKLRARPDNCAVWNPEYGSFMIESTPDHPYSLSVESLDSVQDNIERRYDMLNKEAPPGVVGTTFVTFPLMGQGNFVHCSDKSSPYSQSLFVPDACINQTHPRFANLTANIRLRRGQKVCVLVPLYMDSRTMQDTVDPQLNIDLTPHNKDIFYSMRENGRNMTDELYAETDASAALLVPSSSLDPREDYPVTETLKQLFTPATLYYYAQYFTGQRREHMQERYNACNCPVTLVSHPCIYMDCMAFGMGNSALQVTMQLDNIHEARHVYDQLAILCPAFLALSSATPFQKGLLCDTDVRWLTIAGAVDDRRVEEVPRILKSRYDSISVFISDRTENLEEFNDSQIAINRSYCELLKDSGVDVRLANHIAHLFIRDPLVMYDKMIDIDDTTHTEHFDNIQSTNWQTVRFKPPPIGNDIGWRVEFRVMDIQPTPFENAAFAVFIPLLTKAIITYKPCFYTKISIVDENMGRAHRINPCGEQYIMRKDIFADKCTASDEETARMSIDEIFNGKEGGFYGLIPLVCRYLDDEGKRSPLVNSYLKFLSMRASGRIPTPAQYMRKFVTTHPDYKHDSRLTDSIARDLVQRMHGLAANQIHDDDYLPMSFFTADTVESTK
B2: enzyme (Brachypodium distachyon, UniProt I1IPY7); chain MEQGKAALGWAARDASGHLSPYNFSRRVQKDDDVTIKVLFCGICHTDLHIIKNEWGNALYPIVPGHEVVGVVTDVGPGVKNFKAGETVGVGYFLDSCRTCDSCSKGHENYCPTLVLTSNGVDYDGATTQGGFSDVVVVNQDYVVRVPDTLPPDGAAPLLCAGVTVYSPMMQYGLNAPGKHLGVVGLGGLGHMAVKFGKAFGMKVTVISSSLRKREEALDRLGADDFLVSSDAEQMKAAAGAMDGIIDTVSAGHPIVPLLELLRPMGQMVVCGAPSEPLQLPAYAVITGGKRIAGNGVGSVRDCQAMLDFAGEHGITADVEVVKMDYVNTAVERLERNDVRYRFVIDVAGSLQQGGAA
B3: UGT1A9 (Homo sapiens, UniProt O60656); chain GKLLVVPMDGSHWFTMRSVVEKLILRGHEVVVVMPEVSWQLGRSLNCTVKTYSTSYTLEDLDREFKAFAHAQWKAQVRSIYSLLMGSYNDIFDLFFSNCRSLFKDKKLVEYLKESSFDAVFLDPFDNCGLIVAKYFSLPSVVFARGILCHYLEEGAQCPAPLSYVPRILLGFSDAMTFKERVRNHIMHLEEHLLCHRFFKNALEIASEILQTPVTEYDLYSHTSIWLLRTDFVLDYPKPVMPNMIFIGGINCHQGKPLPMEFEAYINASGEHGIVVFSLGSMVSEIPEKKAMAIADALGKIPQTVLWRYTGTRPSNLANNTILVKWLPQNDLLGHPMTRAFITHAGSHGVYESICNGVPMVMMPLFGDQMDNAKRMETKGAGVTLNVLEMTSEDLENALKAVINDKSYKENIMRLSSLHKDRPVEPLDLAVFWVEFVMRHKGAPHLRPAAHDLTWYQYHSLDVIGFLLAVVLTVAFITFKCCAYGYRKCLGKKGRVKKAHKSKTH
B4: COMT (Canis lupus familiaris, UniProt Q60F99); chain MGDTKEQRILRHVLQHAVAGDPQSVLEAIDTYCSQKEWAMNVGDKKGQILDAVVREQRPSVLLELGAYCGYSAVRMARLLEPGARLITIELNPDFAAITQQMLDFAGLQDRVTILTGASQDTIPELKKKHDVDTLDMVFLDHWKDRYLPDTLLLEECGLLQKGTVLLADNVICPGTPEFLAYVRGNNRFECTHFPSYLEYSKRVDGLEKVVYKGPGSPTQP
B5: enzyme S124T (Arabidopsis thaliana, UniProt O82390); chain MNARALLCSSNIHSLYTSNRPPEKTSSSRSLRNLKPSPKSLRVWIYPRNRSSVFRVLVRSSDKSESSNSYYVEGDKVSGNNDVVSDSPSSIVLPWWEEFPKRWVIVLLCFSAFLLCNMDRVNMTIAILPMSAEYGWNPATVGLIQSSFFWGYLLTQIAGGIWADTVGGKRVLGFGVIWWSIATILTPVAAKLGLPYLLVVRAFMGVGEGVAMPAMNNILSKWVPVQERSRSLALVYSGMYLGSVTGLAFSPFLIHQFGWPSVFYSFGSLGTVWLTLWLTKAESSPLEDPTLLPEERKLIADNCASKEPVKSIPWRLILSKPPVWALISCHFCHNWGTFILLTWMPTYYHQVLKFNLMESGLLSVFPWMTMAISANAGGWIADTLVSRGFSVTNVRKIMQTIGFLGPAFFLTQLKHIDSPTMAVLCMACSQGTDAFSQSGLYSNHQDIAPRYSGVLLGLSNTAGVLAGVLGTAATGHILQHGSWDDVFTISVGLYLVGTVIWNLFSTGEKIID
B6: FMO3 E158K/E308G (Homo sapiens, UniProt P31513); chain GKKVAIIGAGVSGLASIRSCLEEGLEPTCFEKSNDIGGLWKFSDHAEEGRASIYKSVFSNSSKEMMCFPDFPFPDDFPNFMHNSKIQEYIIAFAKEKNLLKYIQFKTFVSSVNKHPDFATTGQWDVTTERDGKKESAVFDAVMVCSGHHVYPNLPKKSFPGLNHFKGKCFHSRDYKEPGVFNGKRVLVVGLGNSGCDIATELSRTAEQVMISSRSGSWVMSRVWDNGYPWDMLLVTRFGTFLKNNLPTAISDWLYVKQMNARFKHENYGLMPLNGVLRKEPVFNDELPASILCGIVSVKPNVKEFTGTSAIFEDGTIFEGIDCVIFATGYSFAYPFLDESIIKSRNNEIILFKGVFPPLLEKSTIAVIGFVQSLGAAIPTVDLQSRWAAQVIKGTCTLPSMEDMMNDINEKMEKKRKWFGKSETIQTDYIVYMDELSSFIGAKPNIPWLFLTDPKLAMEVYFGPCSPYQFRLVGPGQWPGARNAILTQWDRSLKPMQTRVVGRLQKPCFFFHWLKLFAIPILLIAVFLVLT
UniProt Q3SY77, sequence (whole entry, looked up): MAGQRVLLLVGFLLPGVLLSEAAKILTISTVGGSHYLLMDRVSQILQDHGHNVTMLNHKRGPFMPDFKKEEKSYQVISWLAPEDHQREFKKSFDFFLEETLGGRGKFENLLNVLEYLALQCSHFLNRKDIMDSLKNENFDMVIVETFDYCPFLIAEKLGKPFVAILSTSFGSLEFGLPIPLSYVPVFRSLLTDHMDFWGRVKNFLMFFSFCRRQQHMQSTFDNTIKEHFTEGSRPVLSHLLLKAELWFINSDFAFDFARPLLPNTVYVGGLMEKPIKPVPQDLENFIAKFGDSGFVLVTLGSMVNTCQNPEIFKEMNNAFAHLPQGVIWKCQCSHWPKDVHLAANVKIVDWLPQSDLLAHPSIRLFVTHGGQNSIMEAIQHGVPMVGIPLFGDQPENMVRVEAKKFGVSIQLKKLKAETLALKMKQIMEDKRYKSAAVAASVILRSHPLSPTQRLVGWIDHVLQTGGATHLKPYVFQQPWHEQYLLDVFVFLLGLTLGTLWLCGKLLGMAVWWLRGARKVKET
UniProt I0DFJ0, sequence (whole entry, looked up): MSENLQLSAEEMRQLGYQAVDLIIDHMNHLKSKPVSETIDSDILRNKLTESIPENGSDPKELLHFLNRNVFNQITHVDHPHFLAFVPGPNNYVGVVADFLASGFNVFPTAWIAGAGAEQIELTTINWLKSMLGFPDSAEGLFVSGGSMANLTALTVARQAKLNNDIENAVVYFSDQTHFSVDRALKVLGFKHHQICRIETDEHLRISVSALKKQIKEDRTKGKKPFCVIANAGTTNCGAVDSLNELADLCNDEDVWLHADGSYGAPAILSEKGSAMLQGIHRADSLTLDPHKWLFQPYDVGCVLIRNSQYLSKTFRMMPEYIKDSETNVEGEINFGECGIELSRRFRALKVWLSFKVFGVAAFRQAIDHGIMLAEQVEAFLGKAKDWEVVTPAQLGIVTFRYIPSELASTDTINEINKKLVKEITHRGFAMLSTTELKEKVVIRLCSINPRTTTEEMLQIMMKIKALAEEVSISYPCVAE
UniProt P03958, sequence (whole entry, looked up): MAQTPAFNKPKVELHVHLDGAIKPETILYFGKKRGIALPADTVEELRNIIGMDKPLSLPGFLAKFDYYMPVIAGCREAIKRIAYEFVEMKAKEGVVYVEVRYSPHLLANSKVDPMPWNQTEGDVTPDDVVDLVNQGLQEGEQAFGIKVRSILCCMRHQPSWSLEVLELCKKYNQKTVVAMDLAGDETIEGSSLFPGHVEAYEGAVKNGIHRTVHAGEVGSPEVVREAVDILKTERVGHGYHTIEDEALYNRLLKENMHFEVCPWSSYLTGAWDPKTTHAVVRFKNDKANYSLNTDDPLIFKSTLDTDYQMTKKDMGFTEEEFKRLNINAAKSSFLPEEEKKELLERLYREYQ

B1 (Gcs) — Vmax (N[C@@H](CCC(=O)O)C(=O)O; apparent, added: ATP, L-cysteine, Mg2+): 108 µM/min/mg
B2 (enzyme) — Vmax (NC(=O)c1ccc[n+]([C@@H]2O[C@H](COP(=O)(O)OP(=O)(O)OC[C@H]3O[C@@H](n4cnc5c(N)ncnc54)[C@H](OP(=O)(O)O)[C@@H]3O)[C@@H](O)[C@H]2O)c1; pH 8.8, 23 °C, cofactor varied): 5.6 µmol/min/mg
B3 (UGT1A9) — Vmax (CCOC(=O)c1ccc(O)cc1; pH 7.4, 37 °C): 0.00305 µmol/min/mg
B4 (COMT) — Vmax (O=c1oc2c(O)c(O)ccc2cc1-c1nc2ccccc2s1; dog liver S9; pH 7.4, 37 °C): 0.00069 µmol/min/mg
PP2A (Sulfolobus acidocaldarius, UniProt Q4JAD1) — Vmax (O=[N+]([O-])c1ccc(OP(=O)(O)O)cc1; pH 6.5, 70 °C, cooperative, added: Mn2+ 5 mM): 4.3 µmol/min/mg
speG (Vibrio cholerae, UniProt Q9KL03) — Vmax (CC(=O)SCCNC(=O)CCNC(=O)[C@H](O)C(C)(C)COP(=O)(O)OP(=O)(O)OC[C@H]1O[C@@H](n2cnc3c(N)ncnc32)[C@H](O)[C@@H]1OP(=O)(O)O; pH 9, 37 °C): 263 µmol/min/mg
B5 (enzyme S124T) — Vmax (O=P(O)(O)O; pH 6.5, 25 °C, apparent, not purified): 0.00505 µmol/min/mg
UGT1A8 (Homo sapiens, UniProt Q9HAW9) — Vmax (COc1cc2c(cc1CC=C(C)C)C(=O)C[C@@H](c1ccc(O)cc1)O2; pH 7.4, 37 °C): 0.000685 µmol/min/mg
Ada (Mus musculus, UniProt P03958) — Vmax (Nc1ncnc2c1ncn2[C@@H]1O[C@H](CO)C[C@H]1O; mouse erythrocytes; pH 5.8, 37 °C): 0.0121 µmol/min/mg
B6 (FMO3 E158K/E308G) — Vmax (CN1CCC[C@H]1c1cccnc1; HEK293 microsomes; 37 °C, not purified, added: NADPH regenerating system): 3.16e-05 µmol/min/mg
protein (Danio rerio, UniProt A0ACM8QCA3) — Vmax (C[C@H](CCCC(CO)CO)[C@H]1CC[C@H]2[C@@H]3[C@H](O)C[C@H]4C[C@H](O)CC[C@]4(C)[C@H]3C[C@H](O)[C@]12C; pH 7, 28 °C, substrate inhibition, added: PAPS 14 µM): 0.0403 µmol/min/mg
aromatic amino acid decarboxylase (Bacillus atrophaeus, UniProt I0DFJ0) — Vmax (N[C@@H](Cc1c[nH]c2c(Br)cccc12)C(=O)O; pH 7, 37 °C, not purified, added: PLP 40 µM): 0.2 µmol/min/mg
enzyme (Scutellaria baicalensis, UniProt A0A146AUQ2) — Vmax (O=C(O)/C=C/c1ccccc1; pH 7.8, apparent): 10.1 µmol/min/mg
bga (Niallia circulans, UniProt E5RWQ2) — Vmax (O=[N+]([O-])c1ccccc1O[C@@H]1O[C@H](CO)[C@H](O)[C@H](O)[C@H]1O; pH 6, 40 °C, low-substrate phase, biphasic): 35.8 µmol/min/mg
UGT3A2 (Homo sapiens, UniProt Q3SY77) — Vmax (O=c1ccn([C@@H]2O[C@H](COP(=O)(O)OP(=O)(O)O[C@H]3OC[C@@H](O)[C@H](O)[C@H]3O)[C@@H](O)[C@H]2O)c(=O)[nH]1; pH 7.4, 37 °C, not purified, added: 1-OH-pyrene 16 µM, MgCl2 10 mM, alamethicin): 0.000992 µmol/min/mg

For quick reference, copied from above:
B1 (Gcs) — Vmax (N[C@@H](CCC(=O)O)C(=O)O; apparent, added: ATP, L-cysteine, Mg2+): 108 µM/min/mg
